Published values of several laboratories.
Numbered parts are unrelated; each lists some results of a single study. Several values in a cell are separate wells, animals, samples, runs or records.
UniProt Q13177, sequence (whole entry, looked up): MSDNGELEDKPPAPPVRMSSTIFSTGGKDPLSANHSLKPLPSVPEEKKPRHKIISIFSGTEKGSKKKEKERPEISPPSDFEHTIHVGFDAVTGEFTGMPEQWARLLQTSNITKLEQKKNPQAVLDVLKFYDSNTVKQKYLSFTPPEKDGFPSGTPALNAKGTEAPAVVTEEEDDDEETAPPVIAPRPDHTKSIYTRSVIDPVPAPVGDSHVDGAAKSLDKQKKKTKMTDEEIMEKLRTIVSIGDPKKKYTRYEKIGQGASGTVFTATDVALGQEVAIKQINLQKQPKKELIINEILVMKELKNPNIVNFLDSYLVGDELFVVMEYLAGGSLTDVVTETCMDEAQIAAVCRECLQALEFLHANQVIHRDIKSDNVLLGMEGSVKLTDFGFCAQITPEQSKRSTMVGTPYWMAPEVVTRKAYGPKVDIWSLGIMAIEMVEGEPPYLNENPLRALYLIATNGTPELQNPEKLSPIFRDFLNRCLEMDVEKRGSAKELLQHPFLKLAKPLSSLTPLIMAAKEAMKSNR
UniProt Q13546, sequence (whole entry, looked up): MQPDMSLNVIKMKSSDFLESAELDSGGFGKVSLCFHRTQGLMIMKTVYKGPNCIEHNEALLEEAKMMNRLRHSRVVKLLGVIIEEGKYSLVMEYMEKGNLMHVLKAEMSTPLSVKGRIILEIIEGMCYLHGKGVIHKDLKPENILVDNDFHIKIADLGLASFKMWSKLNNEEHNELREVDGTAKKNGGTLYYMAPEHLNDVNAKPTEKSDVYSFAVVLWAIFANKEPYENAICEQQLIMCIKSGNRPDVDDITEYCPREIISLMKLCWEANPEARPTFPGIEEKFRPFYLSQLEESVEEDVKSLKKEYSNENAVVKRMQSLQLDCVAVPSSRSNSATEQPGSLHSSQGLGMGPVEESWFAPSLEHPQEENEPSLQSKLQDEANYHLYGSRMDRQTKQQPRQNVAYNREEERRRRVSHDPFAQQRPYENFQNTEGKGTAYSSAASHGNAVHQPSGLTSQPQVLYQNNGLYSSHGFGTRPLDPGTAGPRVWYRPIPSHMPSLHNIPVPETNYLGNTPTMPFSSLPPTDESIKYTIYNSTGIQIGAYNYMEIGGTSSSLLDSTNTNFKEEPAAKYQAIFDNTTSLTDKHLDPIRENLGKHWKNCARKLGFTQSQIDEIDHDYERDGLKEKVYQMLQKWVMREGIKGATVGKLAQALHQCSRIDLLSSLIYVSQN
UniProt P42336, sequence (whole entry, unmodified, looked up): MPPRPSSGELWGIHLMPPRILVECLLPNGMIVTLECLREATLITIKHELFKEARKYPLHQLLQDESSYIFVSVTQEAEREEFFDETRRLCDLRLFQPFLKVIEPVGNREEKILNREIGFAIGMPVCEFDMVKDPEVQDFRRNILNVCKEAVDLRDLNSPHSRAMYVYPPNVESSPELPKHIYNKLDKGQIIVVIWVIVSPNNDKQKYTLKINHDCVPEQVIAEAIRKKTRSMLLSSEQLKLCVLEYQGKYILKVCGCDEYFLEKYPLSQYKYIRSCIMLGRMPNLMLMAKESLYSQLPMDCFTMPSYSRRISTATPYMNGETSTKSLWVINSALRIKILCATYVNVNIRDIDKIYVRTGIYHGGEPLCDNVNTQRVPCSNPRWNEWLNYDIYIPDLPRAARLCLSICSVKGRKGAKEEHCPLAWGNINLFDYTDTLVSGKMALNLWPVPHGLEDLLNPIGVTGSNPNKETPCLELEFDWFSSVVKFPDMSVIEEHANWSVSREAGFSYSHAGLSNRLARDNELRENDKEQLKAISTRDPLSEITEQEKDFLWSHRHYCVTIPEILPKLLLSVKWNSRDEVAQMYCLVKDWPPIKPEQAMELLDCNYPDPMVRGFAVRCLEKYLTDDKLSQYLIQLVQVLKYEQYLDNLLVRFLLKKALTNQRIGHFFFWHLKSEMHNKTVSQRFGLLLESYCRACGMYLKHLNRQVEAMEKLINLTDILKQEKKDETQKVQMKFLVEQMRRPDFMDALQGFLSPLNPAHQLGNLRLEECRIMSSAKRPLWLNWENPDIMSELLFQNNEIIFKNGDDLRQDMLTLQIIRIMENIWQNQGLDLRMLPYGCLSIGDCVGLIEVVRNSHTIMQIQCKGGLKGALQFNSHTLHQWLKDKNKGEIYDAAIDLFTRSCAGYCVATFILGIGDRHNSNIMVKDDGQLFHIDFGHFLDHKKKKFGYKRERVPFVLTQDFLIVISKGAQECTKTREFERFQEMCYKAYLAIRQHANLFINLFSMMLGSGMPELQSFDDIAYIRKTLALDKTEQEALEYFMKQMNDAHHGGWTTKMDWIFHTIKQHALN
UniProt Q9HAZ1, sequence (whole entry, looked up): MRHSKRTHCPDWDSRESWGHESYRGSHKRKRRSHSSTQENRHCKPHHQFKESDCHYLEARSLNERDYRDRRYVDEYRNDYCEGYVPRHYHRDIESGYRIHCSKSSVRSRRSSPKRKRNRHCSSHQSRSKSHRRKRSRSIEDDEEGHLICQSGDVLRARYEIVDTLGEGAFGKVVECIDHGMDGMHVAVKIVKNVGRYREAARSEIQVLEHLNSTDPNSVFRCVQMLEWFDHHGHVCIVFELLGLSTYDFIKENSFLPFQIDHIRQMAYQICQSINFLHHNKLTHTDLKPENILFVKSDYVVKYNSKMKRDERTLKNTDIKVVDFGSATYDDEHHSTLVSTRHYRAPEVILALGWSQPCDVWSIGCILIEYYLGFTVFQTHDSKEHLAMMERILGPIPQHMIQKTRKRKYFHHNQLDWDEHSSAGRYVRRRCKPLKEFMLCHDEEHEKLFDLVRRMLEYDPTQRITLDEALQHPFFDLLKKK
UniProt Q9C098, sequence (whole entry, looked up): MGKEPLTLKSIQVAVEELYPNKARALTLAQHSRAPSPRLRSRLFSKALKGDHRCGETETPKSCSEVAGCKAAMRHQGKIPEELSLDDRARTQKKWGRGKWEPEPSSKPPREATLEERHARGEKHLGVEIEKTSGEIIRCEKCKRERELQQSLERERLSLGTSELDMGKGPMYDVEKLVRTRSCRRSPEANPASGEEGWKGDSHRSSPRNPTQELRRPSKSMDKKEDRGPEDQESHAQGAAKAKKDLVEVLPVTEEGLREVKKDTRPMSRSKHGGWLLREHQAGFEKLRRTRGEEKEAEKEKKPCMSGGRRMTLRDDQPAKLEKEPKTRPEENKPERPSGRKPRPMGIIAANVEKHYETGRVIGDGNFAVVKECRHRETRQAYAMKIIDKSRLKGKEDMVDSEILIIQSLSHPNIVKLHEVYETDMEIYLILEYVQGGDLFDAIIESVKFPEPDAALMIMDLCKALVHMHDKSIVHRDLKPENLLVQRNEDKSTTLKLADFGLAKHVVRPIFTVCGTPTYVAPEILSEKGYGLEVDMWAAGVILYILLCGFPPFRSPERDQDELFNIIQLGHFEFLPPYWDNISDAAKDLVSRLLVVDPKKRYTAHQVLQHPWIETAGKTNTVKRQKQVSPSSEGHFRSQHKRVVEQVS
UniProt Q9UKE5, sequence (whole entry, looked up): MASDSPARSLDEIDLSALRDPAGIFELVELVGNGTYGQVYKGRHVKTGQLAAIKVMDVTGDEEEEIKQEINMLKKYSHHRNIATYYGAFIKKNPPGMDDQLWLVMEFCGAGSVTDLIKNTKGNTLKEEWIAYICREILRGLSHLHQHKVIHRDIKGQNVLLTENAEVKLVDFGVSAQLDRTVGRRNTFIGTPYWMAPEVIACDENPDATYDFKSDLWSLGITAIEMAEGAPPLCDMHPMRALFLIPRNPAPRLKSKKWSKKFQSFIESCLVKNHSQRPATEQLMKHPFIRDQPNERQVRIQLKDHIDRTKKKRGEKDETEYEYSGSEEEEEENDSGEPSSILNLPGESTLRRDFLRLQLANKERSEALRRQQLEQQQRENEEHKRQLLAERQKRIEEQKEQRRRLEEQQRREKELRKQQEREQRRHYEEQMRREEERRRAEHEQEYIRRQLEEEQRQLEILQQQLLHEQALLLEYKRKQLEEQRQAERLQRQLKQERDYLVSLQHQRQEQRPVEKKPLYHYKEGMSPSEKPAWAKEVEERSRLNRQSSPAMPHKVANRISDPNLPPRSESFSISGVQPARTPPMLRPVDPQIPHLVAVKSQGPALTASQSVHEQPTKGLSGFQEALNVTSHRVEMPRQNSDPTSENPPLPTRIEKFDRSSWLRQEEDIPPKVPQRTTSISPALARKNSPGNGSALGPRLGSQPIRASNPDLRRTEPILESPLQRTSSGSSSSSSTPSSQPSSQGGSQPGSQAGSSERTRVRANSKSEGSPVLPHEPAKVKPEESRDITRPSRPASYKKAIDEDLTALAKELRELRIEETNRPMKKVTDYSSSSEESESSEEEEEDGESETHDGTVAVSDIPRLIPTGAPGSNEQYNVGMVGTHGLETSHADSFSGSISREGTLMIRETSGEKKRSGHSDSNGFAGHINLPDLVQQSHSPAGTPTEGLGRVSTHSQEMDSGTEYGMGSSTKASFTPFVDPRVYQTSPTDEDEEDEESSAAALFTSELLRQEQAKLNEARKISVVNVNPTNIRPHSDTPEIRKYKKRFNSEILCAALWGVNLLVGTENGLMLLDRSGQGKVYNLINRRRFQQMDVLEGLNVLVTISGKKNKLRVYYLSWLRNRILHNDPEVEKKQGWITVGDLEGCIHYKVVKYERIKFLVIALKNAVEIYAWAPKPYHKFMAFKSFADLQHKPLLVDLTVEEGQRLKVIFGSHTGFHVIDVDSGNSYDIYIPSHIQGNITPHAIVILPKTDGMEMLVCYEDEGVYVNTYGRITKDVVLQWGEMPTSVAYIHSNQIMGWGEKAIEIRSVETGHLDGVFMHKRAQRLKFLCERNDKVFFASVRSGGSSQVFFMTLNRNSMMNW

Series 1
Structure (SMILES): O=C1CCC(N2Cc3cc(C4CCN(Cc5ccccc5)CC4)ccc3C2=O)C(=O)N1 (stereo not drawn)
Sample: plasma
For ICR mouse, male; oral, 3.0 mg/kg: MRT(0-inf) read 1.66 h.
rat Sprague Dawley male; oral, 3.0 mg/kg — MRT(0-inf): 3.24 h and 3.46 h.
rat Sprague Dawley male; intravenous, 1.0 mg/kg — MRT(0-inf): 3.16 h and 4.39 h.
ICR mouse, male; intravenous, 1.0 mg/kg — MRT(0-inf): 2.89 h.
It gave 3.13 h for MRT(0-inf) (Sprague Dawley rat, male; oral, 3.0 mg/kg).

Series 2
SMILES: O=C(O)c1cc(-c2ccc(C3CCNCC3)cc2)c2ccc(-c3ccc(C(F)(F)F)cc3)cc2c1
Observed: cell-free assay
Technique: competition with immobilised ligand
Concentration: 1 µM
NTRK2 (Homo sapiens, UniProt Q16620) — remaining binding: 100%.
For NLK (Homo sapiens, UniProt Q9UBE8): remaining binding read 100%.
For SRMS (Homo sapiens, UniProt Q9H3Y6): remaining binding read 100%.
For RIPK1 (Homo sapiens, UniProt Q13546): remaining binding read 100%.
For Ribosomal protein S6 kinase alpha-3, N-terminal kinase domain (RPS6KA3, Homo sapiens, UniProt P51812): remaining binding read 100%.
YES1 (Homo sapiens, UniProt P07947) — remaining binding: 100%.
Ribosomal protein S6 kinase alpha-4, C-terminal kinase domain (RPS6KA4, Homo sapiens, UniProt O75676) — remaining binding: 100%.
The remaining binding was 100% (TAOK1 (Homo sapiens, UniProt Q7L7X3)).
For MET (Homo sapiens, UniProt P08581): remaining binding read 100%.
The remaining binding was 84% (PIK3CA (Homo sapiens, UniProt P42336, H1047Y)).
It gave 100% for remaining binding (TNIK (Homo sapiens, UniProt Q9UKE5)).
ERBB3 (Homo sapiens, UniProt P21860) — remaining binding: 85%.
The remaining binding was 100% (PRKCD (Homo sapiens, UniProt Q05655)).
CLK4 (Homo sapiens, UniProt Q9HAZ1) — remaining binding: 100%.
DCLK3 (Homo sapiens, UniProt Q9C098) — remaining binding: 100%.
It gave 100% for remaining binding (PAK2 (Homo sapiens, UniProt Q13177)).
It gave 100% for remaining binding (LATS2 (Homo sapiens, UniProt Q9NRM7)).

Series 3
Target: Serine/threonine-protein kinase PAK 2 (PAK2, Homo sapiens, UniProt Q13177)
Observed: enzyme activity
Action: inhibitor
Concentration: 0.5 µM
Relative to: control
`FC(F)(F)c1ccc(/C=C/c2nc(COc3ccc(CCCCn4ccnn4)cc3)co2)cc1` has a remaining activity of 113%.
`N#C/C(=C(/N)SC1C=CC=CC1)c1cccc(C(O)c2ccncc2)c1` (stereo not drawn) gave a remaining activity of 103%.
With `O=Nc1c(-c2c(O)[nH]c3ccccc23)[nH]c2ccccc12` the remaining activity was 96.7%.
The remaining activity of `N#CC(c1ccnc(NCCc2cccnc2)n1)c1nc2ccccc2s1` (stereo not drawn) is reported as 103%.
`Nc1nc(Nc2ccc(S(N)(=O)=O)cc2)nn1C(=S)Nc1c(F)cccc1F` gave a remaining activity of 26.4%.
For `COc1cc2c(Nc3ccc(Br)cc3F)ncnc2cc1OCC1CCN(C)CC1`, the remaining activity was 103%.
`O=C(O)/C=C/c1cc(Br)c(Br)c(Br)c1Br` has a remaining activity of 83.2%.
The remaining activity of `CC(C)N(CCC(=O)c1ccc2ccccc2c1)Cc1ccccc1` is reported as 107%.
`CCN(CC)CCCCN1c2ccccc2Oc2ccc(Cl)cc21` gave a remaining activity of 98.6%.
For `NC(=O)c1ccc(-c2nc(-c3ccc4c(c3)OCCO4)c(-c3ccccn3)[nH]2)cc1`, the remaining activity was 102%.
With `C[C@@H](N)[C@H]1CC[C@H](C(=O)Nc2ccncc2)CC1` the remaining activity was 96.6%.
`CC(C)(C)c1nc2c3cc[nH]c(=O)c3c3cc(F)ccc3c2[nH]1` has a remaining activity of 88.8%.
For `NC(=O)c1cccc(-c2cc(Nc3ccc(OC(F)(F)F)cc3)ncn2)c1`, the remaining activity was 106%.
The remaining activity of `O=C(c1ccccc1)c1ccc(N2CCOCC2)cc1O` is reported as 103%.
For `CCCCc1c(-c2ccc(O)cc2)[nH]c2nccnc12`, the remaining activity was 84.5%.
For `CC(C)n1cnc2c(Nc3cccc(Cl)c3)nc(NCCO)nc21`, the remaining activity was 106%.
`COc1cc2c(N3CCN(C(=O)Nc4ccc(OC(C)C)cc4)CC3)ncnc2cc1OCCCN1CCCCC1` gave a remaining activity of 112%.
`c1cc(-c2cnn3cc(-c4ccc(OCCN5CCCCC5)cc4)cnc23)ccn1` gave a remaining activity of 105%.
With `CNc1cc2c(Nc3cccc(Br)c3)ncnc2cn1` the remaining activity was 92.7%.
`O=C1NC(=O)/C(=C/c2ccc3c(c2)OC(F)(F)O3)S1` gave a remaining activity of 99.9%.

Series 4
Cell line: HaCaT
Concentration: 100 µM
Time: 36 h
With `CCC(=O)O[C@]1(C(=O)CCl)[C@@H](C)C[C@H]2[C@@H]3CCC4=CC(=O)C=C[C@]4(C)[C@@]3(F)[C@@H](O)C[C@@]21C` the viability was 36.9%.
The viability of `C[C@H]1[C@H](C)CC[C@]2(C(=O)O)CC[C@]3(C)C(=CC[C@@H]4[C@@]5(C)C[C@@H](O)[C@H](O)[C@@](C)(CO)[C@@H]5CC[C@]43C)[C@H]12` is reported as 5.74%.
The viability of `CCCCC(=O)O[C@H]1CC[C@H]2[C@@H]3CCc4cc(O)ccc4[C@H]3CC[C@]12C` is reported as 4.63%.
With `CC1(C)O[C@@H]2C[C@H]3[C@@H]4C[C@H](F)C5=CC(=O)C=C[C@]5(C)[C@H]4[C@@H](O)C[C@]3(C)[C@]2(C(=O)CO)O1` the viability was 72.2%.
The viability of `COc1cccc2c1C(=O)c1c(O)c3c(c(O)c1C2=O)C[C@@](O)(C(C)=O)C[C@@H]3O[C@H]1C[C@H](N)[C@H](O)[C@H](C)O1` is reported as 23.7%.
`Nc1ccn([C@@H]2CS[C@H](CO)O2)c(=O)n1` gave a viability of 95.1%.
For `CCn1cc(C(=O)O)c(=O)c2cc(F)c(N3CCNCC3)cc21`, the viability was 75.7%.
For `CC(=O)OCC(=O)[C@@]1(O)CC[C@H]2[C@@H]3CCC4=CC(=O)C=C[C@]4(C)[C@H]3[C@@H](O)C[C@@]21C`, the viability was 98.4%.
The viability of `COc1ccc2cc1Oc1ccc(cc1)C[C@H]1c3c(cc4c(c3Oc3cc5c(cc3OC)CCN(C)[C@@H]5C2)OCO4)CCN1C` is reported as 7.63%.

Some of these lines once more (series 2):
For NLK (Homo sapiens, UniProt Q9UBE8): remaining binding read 100%.
For SRMS (Homo sapiens, UniProt Q9H3Y6): remaining binding read 100%.
For RIPK1 (Homo sapiens, UniProt Q13546): remaining binding read 100%.
For Ribosomal protein S6 kinase alpha-3, N-terminal kinase domain (RPS6KA3, Homo sapiens, UniProt P51812): remaining binding read 100%.
YES1 (Homo sapiens, UniProt P07947) — remaining binding: 100%.
Ribosomal protein S6 kinase alpha-4, C-terminal kinase domain (RPS6KA4, Homo sapiens, UniProt O75676) — remaining binding: 100%.
The remaining binding was 100% (TAOK1 (Homo sapiens, UniProt Q7L7X3)).
For MET (Homo sapiens, UniProt P08581): remaining binding read 100%.
